{"data": "Experimental data collected from several papers", "RGS4 residues 19-end": "RGS4 residues 19-end 19-205, Alexa Fluor 568 label (Rattus norvegicus, UniProt P49799)", "B1": "NTM ectodomain 36-311 (Homo sapiens, UniProt Q9P121); chain ATFPKAMDNVTVRQGESATLRCTIDNRVTRVAWLNRSTILYAGNDKWCLDPRVVLLSNTQTQYSIEIQNVDVYDEGPYTCSVQTDNHPKTSRVHLIVQVSPKIVEISSDISINEGNNISLTCIATGRPEPTVTWRHISPKAVGFVSEDEYLEIQGITREQSGDYECSASNDVAAPVVRRVKVTVNYPPYISEAKGTGVPVGQKGTLQCEASAVPSAEFQWYKDDKRLIEGKKGVKVENRPFLSKLIFFNVSEHDYGNYTCVASNKLGHTNASIMLF", "B2": "pum 1-378 (Drosophila melanogaster, UniProt P25822-1); sequence looked up; chain MKFLGGNDDRNGRGGVGVGTDAIVGSRGGVSQDAADAAGAAAAAAVGYVFQQRPSPGGVGVGVGGVGGGVPGVGAVGSTLHEAAAAEYAAHFAQKQQQTRWACGDDGHGIDNPDKWKYNPPMNPANAAPGGPPGNGSNGGPGAIGTIGMGSGLGGGGGGGAGGGNNGGSGTNGGLHHQSMAAAAANMAAMQQAAALAKHNHMISQAAAAVAAQQQHQHPHQQHPQQQQQQQQAQNQGHPHHLMGGGNGLGNGNGLGIQHPGQQQQQQQQQQQQQHPGQYNANLLNHAAALGHMSSYAQSGGSMYDHHGGAMHPGMNGGMPKQQPLGPPGAGGPQDYVYMGGQTTVPMGAAMMPPQNQYMNSSAVAAANRNAAITTSTA", "B3": "VPS21 GTPγS-bound (Saccharomyces cerevisiae, UniProt P36017); chain MNTSVTSIKLVLLGEAAVGKSSIVLRFVSNDFAENKEPTIGAAFLTQRVTINEHTVKFEIWDTAGQERFASLAPMYYRNAQAALVVYDVTKPQSFIKARHWVKELHEQASKDIIIALVGNKIDMLQEGGERKVAREEGEKLAEEKGLLFFETSAKTGENVNDVFLGIGEKIPLKTAEEQNSASNERESNNQRVDLNAANDGTSANSACSC", "B4": "glnB (Escherichia coli, UniProt P0A9Z1); sequence looked up; chain MKKIDAIIKPFKLDDVREALAEVGITGMTVTEVKGFGRQKGHTELYRGAEYMVDFLPKVKIEIVVPDDIVDTCVDTIIRTAQTGKIGDGKIFVFDVARVIRIRTGEEDDAAI", "B5": "Nlgn2 43-612 (Rattus norvegicus, UniProt Q62888-1); sequence looked up; chain VVNTAYGRVRGVRRELNNEILGPVVQFLGVPYATPPLGARRFQPPEAPASWPGVRNATTLPPACPQNLHGALPAIMLPVWFTDNLEAAATYVQNQSEDCLYLNLYVPTEDGPLTKKRDEATLNPPDTDIRDSGKKPVMLFLHGGSYMEGTGNMFDGSVLAAYGNVIVATLNYRLGVLGFLSTGDQAAKGNYGLLDQIQALRWLSENIAHFGGDPERITIFGSGAGASCVNLLILSHHSEGLFQKAIAQSGTAISSWSVNYQPLKYTRLLAAKVGCDREDSTEAVECLRRKSSRELVDQDVQPARYHIAFGPVVDGDVVPDDPEILMQQGEFLNYDMLIGVNQGEGLKFVEDSAESEDGVSASAFDFTVSNFVDNLYGYPEGKDVLRETIKFMYTDWADRDNGEMRRKTLLALFTDHQWVAPAVATAKLHADYQSPVYFYTFYHHCQAEGRPEWADAAHGDELPYVFGVPMVGATDLFPCNFSKNDVMLSAVVMTYWTNFAKTGDPNQPVPQDTKFIHTKPNRFEEVVWSKFNSKEKQYLHIGLKPRVRDNYRANKVAFWLELVPHLHNLH", "B6": "AddB 1-1166 D961A (Bacillus subtilis, UniProt P23477); chain MGAEFLVGRSGSGKTKLIINSIQDELRRAPFGKPIIFLVPDQMTFLMEYELAKTPDMGGMIRAQVFSFSRLAWRVLQHTGGMSRPFLTSTGVQMLLRKLIEEHKQEFKVYQKASDKSGFTAQVERMLTEFKRYCLEPEDIRRMAESGTASEYRGERVLSEKLHDLSILYQQMEKSLADQYLHSEDYLTLLAEHIPLAEDIKGAHIYVDGFYQFTPQEFRVLEQLMVHAEHITFSLTADKPSYEREPHELELFRMTGKTYYRLHQKAKELNLDITYKELSGTERHTKTPELAHLEAQYEARPAIPYAEKQEALTVMQAANRRAELEGIAREIHALVREKGYRYKDVAILARQPEDYKDMVKEVFADYEIPYFIDGKASMLNHPLIEFIRSSLDVLKGNWRYEAVFRCVKTELLFPLNEPKAKVREQVDQLENYCIAYGIKGDRWTKGDRFQYRRFVSLDDDFAQTDQEIEMENMLNDTRDWIVPPLFQLQKRMKKAKTVQEKAEALYRYLEETDVPLKLDQERQRAEDDGRIIEAQQHQQAWDAVIQLLEEFVEMMGDDEISLDLFQQMIEAGAESLTFSLIPPALDQVFVGNMDLSRMYGTSCTFVLGANDGVLPARPDENGVLSDDDREWLKTIGVELSSGGRERLLDEHFLIYMAFSSPSDRLYVSYPIADAEGKTLLPSMIVKRLEELFPHHKERLLTNEPEQVSDEEQLMYVVNKSVAQSFTASQLRLWTREYDISDVWWSTYNVLMSEQDRLQSKKLFSSLFFRNEVKQLERSVSRQLYGERIQGSVSRMETFNACPFSHFASHGLHLKERQFFKLEAPDIGQLFHSSLKLISDRLREQKLDWRDLTKEQCELFSYDAVERLAPKLQKEILLSSNRHYYVKEKLQKIVTRVSGILSEHAKASGFVPIGLELGFGGKGPLPPLTFQLKNGCTMELVGRIDRVDKAESSKGLLLRIVAYKSSDKGLDLAEVYYGLALQMLTYLDLSITHSADWLGMRATPAGVLYFHIHDPMIQSNLPLGLDEIEQEIFKKFKMKGLLLGDQEVVRLMDTTLQEGRSNIINAGLKKDGSLRSDSAAVGEKEFDLLTKHVRRTFQEAGEQITDGRVSIEPYKMKNKTPCTYCAFKSVCQFDESLEENEYRPLKAEKDKTILEWIKKEADGNEHS", "B7": "rps18 (Spinacia oleracea, UniProt Q9M3K7); sequence looked up; chain MDKSKRPFIKSKRSFRRRLPPIQSGDRIDYRNMSLISRFISEQGKILSRRVNRLTLKQQRLITSAIKQARILSLLPFLNNEKQFERTESTTRTANFRTKNK", "B8": "CDC14 C283S (Saccharomyces cerevisiae, UniProt Q00684); sequence looked up; chain MRRSVYLDNTIEFLRGRVYLGAYDYTPEDTDELVFFTVEDAIFYNSFHLDFGPMNIGHLYRFAVIFHEILNDPENANKAVVFYSSASTRQRANAACMLCCYMILVQAWTPHQVLQPLAQVDPPFMPFRDAGYSNADFEITIQDVVYGVWRAKEKGLIDLHSFNLESYEKYEHVEFGDFNVLTPDFIAFASPQEDHPKGYLATKSSHLNQPFKSVLNFFANNNVQLVVRLNSHLYNKKHFEDIGIQHLDLIFEDGTCPDLSIVKNFVGAAETIIKRGGKIAVHSKAGLGRTGCLIGAHLIYTYGFTANECIGFLRFIRPGMVVGPQQHWLYLHQNDFREWKYTTRISLKPSEAIGGLYPLISLEEYRLQKKKLKDDKRVAQNNIEGELRDLTMTPPSNGHGALSARNSSQPSTANNGSNSFKSSAVPQTSPGQPRKGQNGSNTIEDINNNRNPTSHANRKVVIESNNSDDESMQDTNGTSNHYPKVSRKKNDISSASSSRMEDNEPSATNINNAADDTILRQLLPKNRRVTSGRRTTSAAGGIRKISGSIKK", "B9": "Rag2 1-387 (Mus musculus, UniProt P21784); sequence looked up; chain MSLQMVTVGHNIALIQPGFSLMNFDGQVFFFGQKGWPKRSCPTGVFHFDIKQNHLKLKPAIFSKDSCYLPPLRYPATCSYKGSIDSDKHQYIIHGGKTPNNELSDKIYIMSVACKNNKKVTFRCTEKDLVGDVPEPRYGHSIDVVYSRGKSMGVLFGGRSYMPSTQRTTEKWNSVADCLPHVFLIDFEFGCATSYILPELQDGLSFHVSIARNDTVYILGGHSLASNIRPANLYRIRVDLPLGTPAVNCTVLPGGISVSSAILTQTNNDEFVIVGGYQLENQKRMVCSLVSLGDNTIEISEMETPDWTSDIKHSKIWFGSNMGNGTIFLGIPGDNKQAMSEAFYFYTLRCSEEDLSEDQKIVSNSQTSTEDPGDSTPFEDSEEFCFS", "B10": "ftsZ (Bacillus subtilis, UniProt P17865); sequence looked up; chain MLEFETNIDGLASIKVIGVGGGGNNAVNRMIENEVQGVEYIAVNTDAQALNLSKAEVKMQIGAKLTRGLGAGANPEVGKKAAEESKEQIEEALKGADMVFVTAGMGGGTGTGAAPVIAQIAKDLGALTVGVVTRPFTFEGRKRQLQAAGGISAMKEAVDTLIVIPNDRILEIVDKNTPMLEAFREADNVLRQGVQGISDLIATPGLINLDFADVKTIMSNKGSALMGIGIATGENRAAEAAKKAISSPLLEAAIDGAQGVLMNITGGTNLSLYEVQEAADIVASASDQDVNMIFGSVINENLKDEIVVTVIATGFIEQEKDVTKPQRPSLNQSIKTHNQSVPKREPKREEPQQQNTVSRHTSQPADDTLDIPTFLRNRNKRG", "note": "Lines come from different studies, so protocols differ. Positions of bridges follow the written chain, without caps; N, C: chain ends. No end group written: not given here.", "chain of UniProt P49799 (whole entry, unmodified, looked up)": "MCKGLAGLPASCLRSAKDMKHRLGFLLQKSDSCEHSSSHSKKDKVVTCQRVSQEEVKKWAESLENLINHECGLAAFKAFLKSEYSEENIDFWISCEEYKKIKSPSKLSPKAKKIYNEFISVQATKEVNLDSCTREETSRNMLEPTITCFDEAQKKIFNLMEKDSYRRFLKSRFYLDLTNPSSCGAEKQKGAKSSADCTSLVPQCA", "chain of UniProt P49798 (whole entry, unmodified, looked up)": "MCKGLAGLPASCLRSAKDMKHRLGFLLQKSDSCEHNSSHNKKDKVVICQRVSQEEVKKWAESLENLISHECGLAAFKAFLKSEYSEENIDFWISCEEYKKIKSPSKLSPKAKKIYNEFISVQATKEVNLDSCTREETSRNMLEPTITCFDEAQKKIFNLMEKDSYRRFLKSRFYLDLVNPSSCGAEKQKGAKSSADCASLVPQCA", "chain of UniProt P15919 (whole entry, looked up)": "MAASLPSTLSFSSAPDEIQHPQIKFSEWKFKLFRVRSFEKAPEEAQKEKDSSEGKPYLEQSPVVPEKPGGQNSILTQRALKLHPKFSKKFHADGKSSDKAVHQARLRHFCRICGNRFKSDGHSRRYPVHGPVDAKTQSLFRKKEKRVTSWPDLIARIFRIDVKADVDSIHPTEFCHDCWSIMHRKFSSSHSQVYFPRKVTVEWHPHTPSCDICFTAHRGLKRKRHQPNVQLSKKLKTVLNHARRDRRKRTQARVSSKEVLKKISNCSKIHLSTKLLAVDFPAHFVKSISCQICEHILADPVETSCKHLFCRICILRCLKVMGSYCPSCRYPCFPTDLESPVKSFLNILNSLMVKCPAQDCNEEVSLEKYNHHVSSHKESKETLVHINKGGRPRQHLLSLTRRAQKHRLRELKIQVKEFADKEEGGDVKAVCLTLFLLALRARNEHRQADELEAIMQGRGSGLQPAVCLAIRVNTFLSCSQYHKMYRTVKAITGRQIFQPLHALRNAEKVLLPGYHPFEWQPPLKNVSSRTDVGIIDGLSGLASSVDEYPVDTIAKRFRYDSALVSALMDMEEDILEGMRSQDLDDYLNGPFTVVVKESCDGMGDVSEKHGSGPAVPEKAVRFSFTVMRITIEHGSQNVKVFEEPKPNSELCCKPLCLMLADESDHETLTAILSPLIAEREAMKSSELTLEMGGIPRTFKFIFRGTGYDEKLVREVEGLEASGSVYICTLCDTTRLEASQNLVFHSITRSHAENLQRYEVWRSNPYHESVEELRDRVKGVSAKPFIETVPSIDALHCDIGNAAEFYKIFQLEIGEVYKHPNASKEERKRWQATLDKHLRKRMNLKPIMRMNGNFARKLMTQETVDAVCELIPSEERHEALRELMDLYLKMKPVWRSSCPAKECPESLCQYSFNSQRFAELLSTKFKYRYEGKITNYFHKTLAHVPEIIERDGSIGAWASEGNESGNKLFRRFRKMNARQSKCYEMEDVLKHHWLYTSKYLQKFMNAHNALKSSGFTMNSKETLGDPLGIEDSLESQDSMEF", "chain of UniProt P0AFB5 (whole entry, looked up)": "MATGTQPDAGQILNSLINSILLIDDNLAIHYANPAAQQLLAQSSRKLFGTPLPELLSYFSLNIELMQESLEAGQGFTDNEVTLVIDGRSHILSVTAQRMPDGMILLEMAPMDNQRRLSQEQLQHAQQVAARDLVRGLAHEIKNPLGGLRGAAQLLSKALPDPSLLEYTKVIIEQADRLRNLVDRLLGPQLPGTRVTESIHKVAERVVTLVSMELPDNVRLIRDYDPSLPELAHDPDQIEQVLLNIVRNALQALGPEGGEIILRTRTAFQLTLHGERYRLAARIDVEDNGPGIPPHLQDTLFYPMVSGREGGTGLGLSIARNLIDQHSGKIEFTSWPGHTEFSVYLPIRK", "chain of UniProt P40003 (whole entry, looked up)": "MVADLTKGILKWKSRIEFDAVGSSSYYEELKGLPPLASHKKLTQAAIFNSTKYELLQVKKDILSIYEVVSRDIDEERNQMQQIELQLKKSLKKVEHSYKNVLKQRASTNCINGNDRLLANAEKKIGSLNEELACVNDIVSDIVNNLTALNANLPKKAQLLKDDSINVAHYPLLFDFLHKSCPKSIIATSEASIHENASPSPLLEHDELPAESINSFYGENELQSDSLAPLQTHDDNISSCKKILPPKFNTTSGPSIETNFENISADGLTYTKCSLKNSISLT", "chain of UniProt O34894 (whole entry, looked up)": "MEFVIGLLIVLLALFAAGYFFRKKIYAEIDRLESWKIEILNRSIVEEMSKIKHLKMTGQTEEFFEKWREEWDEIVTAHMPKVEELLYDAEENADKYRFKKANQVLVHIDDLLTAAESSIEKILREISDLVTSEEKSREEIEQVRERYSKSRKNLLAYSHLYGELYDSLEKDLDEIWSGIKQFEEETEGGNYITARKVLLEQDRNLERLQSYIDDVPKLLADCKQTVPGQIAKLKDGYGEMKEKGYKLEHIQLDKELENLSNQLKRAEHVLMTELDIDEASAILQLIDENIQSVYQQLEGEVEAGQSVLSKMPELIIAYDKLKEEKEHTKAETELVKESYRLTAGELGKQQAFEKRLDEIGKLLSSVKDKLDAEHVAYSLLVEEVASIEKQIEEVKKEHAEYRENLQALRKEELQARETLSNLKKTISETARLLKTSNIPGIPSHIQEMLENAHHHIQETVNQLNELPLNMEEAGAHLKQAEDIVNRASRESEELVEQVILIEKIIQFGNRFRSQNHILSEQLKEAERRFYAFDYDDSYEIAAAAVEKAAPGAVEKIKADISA", "chain of UniProt Q7Z3B1 (whole entry, looked up)": "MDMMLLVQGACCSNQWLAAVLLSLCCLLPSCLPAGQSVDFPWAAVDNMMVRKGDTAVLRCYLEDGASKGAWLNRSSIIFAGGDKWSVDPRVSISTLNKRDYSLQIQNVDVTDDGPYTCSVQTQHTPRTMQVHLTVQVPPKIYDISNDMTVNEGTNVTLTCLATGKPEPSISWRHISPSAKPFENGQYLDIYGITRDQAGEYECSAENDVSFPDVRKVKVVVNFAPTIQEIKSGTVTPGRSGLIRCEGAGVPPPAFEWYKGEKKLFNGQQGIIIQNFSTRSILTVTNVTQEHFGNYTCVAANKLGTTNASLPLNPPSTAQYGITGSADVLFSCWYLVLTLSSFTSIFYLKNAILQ", "chain of UniProt Q06628 (whole entry, looked up)": "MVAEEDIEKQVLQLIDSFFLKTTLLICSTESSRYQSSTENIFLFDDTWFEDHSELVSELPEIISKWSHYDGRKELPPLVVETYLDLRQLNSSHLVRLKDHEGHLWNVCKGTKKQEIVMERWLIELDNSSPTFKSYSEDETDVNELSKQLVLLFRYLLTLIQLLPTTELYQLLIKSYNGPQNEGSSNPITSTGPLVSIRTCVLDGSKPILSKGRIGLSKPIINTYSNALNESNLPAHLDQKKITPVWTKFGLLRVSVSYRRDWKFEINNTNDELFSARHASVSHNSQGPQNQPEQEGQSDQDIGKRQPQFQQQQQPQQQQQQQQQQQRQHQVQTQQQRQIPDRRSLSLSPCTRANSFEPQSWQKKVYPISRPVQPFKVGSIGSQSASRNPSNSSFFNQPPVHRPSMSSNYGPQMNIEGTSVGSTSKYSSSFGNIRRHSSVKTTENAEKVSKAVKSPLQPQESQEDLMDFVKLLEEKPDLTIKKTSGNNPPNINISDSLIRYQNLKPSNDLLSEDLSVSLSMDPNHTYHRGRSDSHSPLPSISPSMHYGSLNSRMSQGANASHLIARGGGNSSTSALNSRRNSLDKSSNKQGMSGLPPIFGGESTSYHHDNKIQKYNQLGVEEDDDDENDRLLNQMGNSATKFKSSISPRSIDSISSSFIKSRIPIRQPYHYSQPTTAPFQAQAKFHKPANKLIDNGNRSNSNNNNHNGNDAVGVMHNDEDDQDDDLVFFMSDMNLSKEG", "chain of UniProt O43264 (whole entry, looked up)": "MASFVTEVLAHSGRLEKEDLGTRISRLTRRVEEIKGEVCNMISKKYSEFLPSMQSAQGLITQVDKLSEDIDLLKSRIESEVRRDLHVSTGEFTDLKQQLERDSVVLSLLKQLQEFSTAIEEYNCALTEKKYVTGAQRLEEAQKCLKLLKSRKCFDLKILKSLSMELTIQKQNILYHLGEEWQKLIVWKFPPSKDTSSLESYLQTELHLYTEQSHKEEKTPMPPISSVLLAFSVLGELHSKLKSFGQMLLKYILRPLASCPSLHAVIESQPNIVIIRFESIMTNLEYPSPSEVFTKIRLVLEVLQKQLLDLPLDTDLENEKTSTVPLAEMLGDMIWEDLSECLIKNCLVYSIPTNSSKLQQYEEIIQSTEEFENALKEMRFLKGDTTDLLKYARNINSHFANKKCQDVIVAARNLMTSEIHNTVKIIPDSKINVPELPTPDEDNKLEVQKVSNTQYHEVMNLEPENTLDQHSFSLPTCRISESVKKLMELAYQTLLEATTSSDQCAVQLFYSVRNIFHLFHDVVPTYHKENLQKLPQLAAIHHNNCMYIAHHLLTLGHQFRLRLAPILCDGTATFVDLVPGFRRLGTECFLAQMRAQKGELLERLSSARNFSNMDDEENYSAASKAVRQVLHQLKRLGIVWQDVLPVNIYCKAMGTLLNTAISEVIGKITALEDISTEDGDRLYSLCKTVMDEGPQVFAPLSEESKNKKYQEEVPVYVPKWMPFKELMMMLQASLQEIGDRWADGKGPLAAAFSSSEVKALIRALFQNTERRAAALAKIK", "chain of UniProt P82412 (whole entry, looked up)": "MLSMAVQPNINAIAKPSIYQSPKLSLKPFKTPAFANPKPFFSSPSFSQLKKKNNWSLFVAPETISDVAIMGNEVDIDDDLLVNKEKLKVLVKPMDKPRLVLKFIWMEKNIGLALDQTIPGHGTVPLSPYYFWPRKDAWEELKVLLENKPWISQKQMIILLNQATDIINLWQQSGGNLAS"}
{"Substance": "B1 (NTM ectodomain 36-311)", "partner": "NEGR1 ectodomain 38-313 (Homo sapiens, UniProt Q7Z3B1)", "test": "SPR", "binding": "binds"}
{"Substance": "B2 (pum 1-378)", "partner": "CNOT1/CNOT2/CNOT3/CNOT10/CNOT11/CNOT7/CNOT6/CNOT9 CCR4-NOT complex 1-2376 (Homo sapiens)", "test": "pull-down", "binding": "binds"}
{"Substance": "psbQ (Synechocystis sp. PCC 6803, UniProt P73048)", "partner": "psbC CP43 (Synechocystis sp. PCC 6803)", "test": "cryo-EM", "binding": "binds"}
{"Substance": "B3 (VPS21 GTPγS-bound)", "partner": "BLOC-1 complex (UniProt P40003)", "test": "pull-down", "setting": "added: GTPγS", "binding": "binds"}
{"Substance": "B4 (glnB)", "partner": "glnL (Escherichia coli, UniProt P0AFB5)", "test": "native gel, EMSA", "setting": "pH 7.5, 4 °C, without ATP, added: ADP 0.5 mM, α-ketoglutarate 1 mM", "binding": "binds"}
{"Substance": "H-KHCYGFCK-NH2 (designed peptide; disulfide 3-7; SMILES NCCCC[C@H](NC(=O)[C@@H]1CSSC[C@H](NC(=O)[C@H](Cc2c[nH]cn2)NC(=O)[C@@H](N)CCCCN)C(=O)N[C@@H](Cc2ccc(O)cc2)C(=O)NCC(=O)N[C@@H](Cc2ccccc2)C(=O)N1)C(N)=O; free N-terminus/C-amide/cyclic disulfide Cys3-Cys7)", "partner": "RGS4 residues 52-end 52-205, Alexa Fluor 532 label (Homo sapiens, UniProt P49798)", "test": "flow cytometry", "system": "peptide", "setting": "room temperature", "binding": "binds"}
{"Substance": "B5 (Nlgn2 43-612)", "partner": "MDGA1 ectodomain 22-920 T333C/Y519C (Homo sapiens)", "test": "SPR", "setting": "25 °C, NaCl 150 mM", "binding": "binds"}
{"Substance": "LVCKGYCQ-NH2 (designed peptide; disulfide 3-7; also: on OBOC bead: half N-acetylated, half free N-terminus; C-amide, Cys3-Cys7 disulfide, N-acetyl partial)", "partner": "RGS4 residues 19-end", "test": "fluorescence imaging of beads", "system": "peptide", "binding": "binds"}
{"Substance": "B6 (AddB 1-1166 D961A)", "partner": "addA 1-1232 D1172A (Bacillus subtilis, UniProt P23478)", "test": "crystal structure", "binding": "binds"}
{"Substance": "Bmper (Mus musculus, UniProt Q8CJ69)", "partner": "CHRD/BMP4 full length complex (Xenopus laevis/Homo sapiens)", "test": "co-IP", "setting": "added: BMP4", "binding": "binds"}
{"Substance": "B7 (rps18)", "partner": "PSRP3 mature (Spinacia oleracea, UniProt P82412)", "test": "cryo-EM structure", "setting": "native chloroplast 70S ribosome", "binding": "binds"}
{"Substance": "ZW10 (Homo sapiens, UniProt O43264)", "partner": "MAD1L1/MAD2L1, pS546 on MAD1 (Homo sapiens)", "test": "pull-down", "binding": "binds"}
{"Substance": "KVCMGGCT-NH2 (designed peptide; disulfide 3-7; also: on OBOC bead: half N-acetylated, half free N-terminus; half N-acetyl, half free N-terminus/C-amide/cyclic disulfide Cys3-Cys7)", "partner": "RGS4 residues 19-end", "test": "fluorescence imaging of beads", "system": "peptide", "binding": "binds"}
{"Substance": "B8 (CDC14 C283S)", "partner": "ATG13, hyperphosphorylated (Saccharomyces cerevisiae, UniProt Q06628)", "test": "pull-down", "setting": "hyperphosphorylated partner", "binding": "binds"}
{"Substance": "B9 (Rag2 1-387)", "partner": "Rag1 384-1008 (Mus musculus, UniProt P15919)", "test": "EMSA", "setting": "mixed before DNA addition", "binding": "binds"}
{"Substance": "YNCQGECE-NH2 (designed peptide; disulfide 3-7; also: on OBOC bead: half N-acetylated, half free N-terminus; half N-acetyl, half free N-terminus/C-amide/cyclic disulfide Cys3-Cys7)", "partner": "RGS4 residues 19-end", "test": "fluorescence imaging of beads", "system": "peptide", "binding": "binds"}
{"Substance": "B10 (ftsZ)", "partner": "ezrA cytoplasmic domain 22-562 (Bacillus subtilis, UniProt O34894)", "test": "cross-linking", "binding": "binds"}
{"note": "Excerpt of the above:"}
{"Substance": "B1 (NTM ectodomain 36-311)", "partner": "NEGR1 ectodomain 38-313 (Homo sapiens, UniProt Q7Z3B1)", "test": "SPR", "binding": "binds"}
{"Substance": "B4 (glnB)", "partner": "glnL (Escherichia coli, UniProt P0AFB5)", "test": "native gel, EMSA", "setting": "pH 7.5, 4 °C, without ATP, added: ADP 0.5 mM, α-ketoglutarate 1 mM", "binding": "binds"}
